Assay results gathered from unrelated publications.
Lines come from different studies, so protocols differ. Numbers after ± are the reported error.

SMILES	tested on	assay	test system	conditions	quantity	result
CC[C@H](C)C(=O)N1CCC(NC(=O)Nc2ccc(OC(F)(F)F)c(F)c2)CC1			healthy volunteers	oral, 16 mg single dose	subjects with insomnia TEAE	0%
O=C(O)CCC(NP(=O)(O)OCCC[C@@H](NC(=O)CCC(NC(=O)c1ccc([18F])cc1)C(=O)O)C(=O)O)C(=O)O (stereo partly shown)	CWR22Rv1 tumour model		host not given, bone	intravenous, 2 h, tumour-bearing	tracer uptake	0.5 %ID/g
C[C@@](O)(C(F)F)[C@H](NC(=O)c1ccc(C#CC#CC2CC2)cc1)C(=O)NO			CD-1 mice	oral, 40 mg/kg, fasted	apparent volume of distribution (Vz/F)	8.9 ± 3.2 L/kg
CC(C)[C@H](NC(=O)CNC(=O)[C@H](CCC(N)=O)NC(=O)[C@H](C)N)C(=O)O			human	1 mg/kg single dose	subjects with severe adverse events	0%
CCC(=O)N(C)c1ccc(Cl)c(Cl)c1	Salmonella typhimurium	Ames test	TA1537	5.00 mg/plate, without S9 activation	revertants	0 revertants/plate
CN[C@](C)(C[18F])C(=O)O	MDA-MB-468 tumour model		host not given, lung	1 h, tumour-bearing	tracer uptake	1.5 %ID/g
COc1ccc(CNc2nc(N3CCC[C@H]3CO)ncc2C(=O)NNC(=O)c2cnc(N3CCC[C@H]3CO)nc2NCc2ccc(OC)c(Cl)c2)cc1Cl	Salmonella typhimurium		TA97a	125 µg/plate, 48 h, together with: rat liver S9	revertant count	146 ± 32
COc1cc(C(=O)NCCOCCOCCOCCNC(=O)c2ccc([18F])nc2)ccc1NC(=O)C1NC(CC(C)(C)C)C(C#N)(c2ccc(Cl)cc2F)C1c1cccc(Cl)c1F (stereo not shown)	HepG2 tumour model		host not given, lung	2 h, tumour-bearing	tracer uptake	0.81 %ID/g
COc1ccc(CNc2nc(N3CCC[C@H]3CO)ncc2C(=O)NN)cc1Cl	Salmonella typhimurium		TA97a	1000 µg/plate, 48 h	revertant count	129 ± 17
O=C(O)CCC(NP(=O)(O)OCCC[C@@H](NC(=O)CCC(NC(=O)CCCCCNC(=O)CCCCCNC(=O)c1ccc([18F])cc1)C(=O)O)C(=O)O)C(=O)O (stereo partly shown)	CWR22Rv1 tumour model		host not given, spleen	intravenous, 1 h, tumour-bearing	tracer uptake	0.32 %ID/g

Some of these lines once more:
SMILES	tested on	assay	test system	conditions	quantity	result
O=C(O)CCC(NP(=O)(O)OCCC[C@@H](NC(=O)CCC(NC(=O)CCCCCNC(=O)CCCCCNC(=O)c1ccc([18F])cc1)C(=O)O)C(=O)O)C(=O)O (stereo partly shown)	CWR22Rv1 tumour model		host not given, spleen	intravenous, 1 h, tumour-bearing	tracer uptake	0.32 %ID/g
